# Published values gathered from unrelated publications.
# “And” joins repeats or separate records; there may be more than shown. Numbers after ± are the reported error.
# PTGS2: Prostaglandin G/H synthase 2 (PTGS2, Homo sapiens, UniProt P35354)
# UniProt P35354, sequence (whole entry, looked up): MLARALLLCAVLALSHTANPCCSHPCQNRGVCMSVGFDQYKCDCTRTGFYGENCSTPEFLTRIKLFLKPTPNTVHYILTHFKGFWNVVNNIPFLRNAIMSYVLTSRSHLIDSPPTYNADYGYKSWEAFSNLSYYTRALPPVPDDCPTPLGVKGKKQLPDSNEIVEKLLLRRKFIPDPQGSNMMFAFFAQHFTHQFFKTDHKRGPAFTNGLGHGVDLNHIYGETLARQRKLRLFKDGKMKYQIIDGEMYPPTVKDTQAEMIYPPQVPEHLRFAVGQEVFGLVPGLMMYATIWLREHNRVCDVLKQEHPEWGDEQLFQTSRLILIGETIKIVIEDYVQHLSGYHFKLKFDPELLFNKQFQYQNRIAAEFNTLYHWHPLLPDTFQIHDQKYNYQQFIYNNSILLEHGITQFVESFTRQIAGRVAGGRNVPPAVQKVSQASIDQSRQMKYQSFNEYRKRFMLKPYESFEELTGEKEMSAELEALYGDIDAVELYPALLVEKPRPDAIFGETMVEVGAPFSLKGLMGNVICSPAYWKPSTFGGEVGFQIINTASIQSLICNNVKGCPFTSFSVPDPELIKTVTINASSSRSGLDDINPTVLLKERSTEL
# CPL: CPL (Toxoplasma gondii, UniProt Q6DMN0)
# PTGS1: Prostaglandin G/H synthase 1 (PTGS1, Ovis aries, UniProt P05979)
# UniProt P05979, sequence (whole entry, looked up): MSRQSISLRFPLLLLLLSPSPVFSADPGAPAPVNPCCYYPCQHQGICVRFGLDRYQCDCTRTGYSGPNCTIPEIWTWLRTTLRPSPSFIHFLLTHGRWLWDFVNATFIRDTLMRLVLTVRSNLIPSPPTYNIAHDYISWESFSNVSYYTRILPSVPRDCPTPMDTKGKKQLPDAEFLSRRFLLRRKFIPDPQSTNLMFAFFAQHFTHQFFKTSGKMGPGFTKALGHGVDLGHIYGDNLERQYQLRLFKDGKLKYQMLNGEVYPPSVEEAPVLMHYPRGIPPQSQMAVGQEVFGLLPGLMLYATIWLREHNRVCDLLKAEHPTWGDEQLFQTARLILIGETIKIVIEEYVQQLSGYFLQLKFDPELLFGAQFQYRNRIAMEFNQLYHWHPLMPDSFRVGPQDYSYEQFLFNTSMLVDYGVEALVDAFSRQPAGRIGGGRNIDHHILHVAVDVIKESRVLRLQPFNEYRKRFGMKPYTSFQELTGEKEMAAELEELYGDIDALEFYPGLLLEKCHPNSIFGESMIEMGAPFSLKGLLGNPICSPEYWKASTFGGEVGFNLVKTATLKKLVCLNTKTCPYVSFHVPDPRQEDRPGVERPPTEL
# gag-pol integrase: Gag-Pol polyprotein, integrase (gag-pol, Human immunodeficiency virus type 1 group M subtype B, UniProt P04585)
# HDAC6: Protein deacetylase HDAC6 (HDAC6, Homo sapiens, UniProt Q9UBN7)
# UniProt Q9UBN7, sequence (whole entry, looked up): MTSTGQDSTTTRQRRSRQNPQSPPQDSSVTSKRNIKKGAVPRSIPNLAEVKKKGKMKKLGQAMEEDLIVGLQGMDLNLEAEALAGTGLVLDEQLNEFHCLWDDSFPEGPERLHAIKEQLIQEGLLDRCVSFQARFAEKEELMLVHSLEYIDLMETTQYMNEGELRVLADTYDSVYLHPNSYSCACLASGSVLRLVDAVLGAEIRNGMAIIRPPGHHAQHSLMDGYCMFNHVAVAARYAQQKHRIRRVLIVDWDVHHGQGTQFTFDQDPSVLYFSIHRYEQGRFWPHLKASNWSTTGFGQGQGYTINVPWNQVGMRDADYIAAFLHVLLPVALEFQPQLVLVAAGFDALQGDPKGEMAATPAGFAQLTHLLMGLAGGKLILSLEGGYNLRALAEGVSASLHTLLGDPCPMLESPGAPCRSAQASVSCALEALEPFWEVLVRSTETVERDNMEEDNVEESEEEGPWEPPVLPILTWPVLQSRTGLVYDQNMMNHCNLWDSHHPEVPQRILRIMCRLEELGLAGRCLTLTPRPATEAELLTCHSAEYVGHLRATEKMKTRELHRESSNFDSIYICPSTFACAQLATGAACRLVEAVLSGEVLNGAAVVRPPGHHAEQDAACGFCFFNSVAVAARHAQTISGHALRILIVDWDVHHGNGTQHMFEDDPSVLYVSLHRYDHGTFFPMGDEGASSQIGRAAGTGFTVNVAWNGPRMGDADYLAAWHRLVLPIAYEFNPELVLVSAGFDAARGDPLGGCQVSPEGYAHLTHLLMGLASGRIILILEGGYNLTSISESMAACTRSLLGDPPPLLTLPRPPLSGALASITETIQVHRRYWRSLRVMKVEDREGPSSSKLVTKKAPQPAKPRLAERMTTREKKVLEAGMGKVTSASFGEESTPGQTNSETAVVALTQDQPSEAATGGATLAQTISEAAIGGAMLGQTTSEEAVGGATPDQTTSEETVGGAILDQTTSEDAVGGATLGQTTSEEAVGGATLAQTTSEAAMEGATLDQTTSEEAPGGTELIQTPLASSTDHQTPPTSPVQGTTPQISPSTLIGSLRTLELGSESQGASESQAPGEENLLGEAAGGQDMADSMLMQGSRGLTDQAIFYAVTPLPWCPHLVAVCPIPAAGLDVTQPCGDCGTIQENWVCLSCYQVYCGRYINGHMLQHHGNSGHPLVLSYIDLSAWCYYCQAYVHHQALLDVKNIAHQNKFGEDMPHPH
# UniProt P51878, sequence (whole entry, looked up): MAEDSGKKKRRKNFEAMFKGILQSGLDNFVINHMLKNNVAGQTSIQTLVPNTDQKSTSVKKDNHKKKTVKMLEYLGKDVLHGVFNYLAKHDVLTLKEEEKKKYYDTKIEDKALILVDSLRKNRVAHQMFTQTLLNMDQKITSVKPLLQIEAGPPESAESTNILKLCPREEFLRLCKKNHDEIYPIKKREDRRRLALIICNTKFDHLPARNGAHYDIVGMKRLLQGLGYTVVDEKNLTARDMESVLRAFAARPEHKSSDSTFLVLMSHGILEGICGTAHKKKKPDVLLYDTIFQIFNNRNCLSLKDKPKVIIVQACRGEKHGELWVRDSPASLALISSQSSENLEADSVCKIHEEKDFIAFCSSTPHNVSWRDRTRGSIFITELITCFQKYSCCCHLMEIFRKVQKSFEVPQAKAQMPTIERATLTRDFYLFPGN
# UniProt P05106, sequence (whole entry, looked up): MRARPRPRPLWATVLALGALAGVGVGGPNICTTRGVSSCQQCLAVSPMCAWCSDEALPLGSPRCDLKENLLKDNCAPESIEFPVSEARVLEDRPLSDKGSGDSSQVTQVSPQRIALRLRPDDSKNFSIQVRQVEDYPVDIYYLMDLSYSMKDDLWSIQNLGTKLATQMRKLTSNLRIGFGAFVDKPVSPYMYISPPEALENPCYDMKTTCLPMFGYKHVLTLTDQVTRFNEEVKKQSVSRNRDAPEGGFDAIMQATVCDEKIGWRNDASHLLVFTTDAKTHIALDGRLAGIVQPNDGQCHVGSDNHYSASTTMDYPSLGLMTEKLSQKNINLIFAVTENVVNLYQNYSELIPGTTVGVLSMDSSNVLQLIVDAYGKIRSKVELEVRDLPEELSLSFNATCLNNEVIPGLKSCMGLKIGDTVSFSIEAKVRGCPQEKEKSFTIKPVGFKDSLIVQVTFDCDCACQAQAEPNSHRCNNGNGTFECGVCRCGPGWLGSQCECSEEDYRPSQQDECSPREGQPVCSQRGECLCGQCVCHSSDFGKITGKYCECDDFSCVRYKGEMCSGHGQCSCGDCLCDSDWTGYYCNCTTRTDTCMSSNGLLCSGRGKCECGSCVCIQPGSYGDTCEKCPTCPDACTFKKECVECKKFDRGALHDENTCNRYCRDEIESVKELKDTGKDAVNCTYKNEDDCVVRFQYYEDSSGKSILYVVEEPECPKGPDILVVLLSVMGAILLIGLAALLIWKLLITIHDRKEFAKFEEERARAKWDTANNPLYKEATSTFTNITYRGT
# UniProt P12390, sequence (whole entry, looked up): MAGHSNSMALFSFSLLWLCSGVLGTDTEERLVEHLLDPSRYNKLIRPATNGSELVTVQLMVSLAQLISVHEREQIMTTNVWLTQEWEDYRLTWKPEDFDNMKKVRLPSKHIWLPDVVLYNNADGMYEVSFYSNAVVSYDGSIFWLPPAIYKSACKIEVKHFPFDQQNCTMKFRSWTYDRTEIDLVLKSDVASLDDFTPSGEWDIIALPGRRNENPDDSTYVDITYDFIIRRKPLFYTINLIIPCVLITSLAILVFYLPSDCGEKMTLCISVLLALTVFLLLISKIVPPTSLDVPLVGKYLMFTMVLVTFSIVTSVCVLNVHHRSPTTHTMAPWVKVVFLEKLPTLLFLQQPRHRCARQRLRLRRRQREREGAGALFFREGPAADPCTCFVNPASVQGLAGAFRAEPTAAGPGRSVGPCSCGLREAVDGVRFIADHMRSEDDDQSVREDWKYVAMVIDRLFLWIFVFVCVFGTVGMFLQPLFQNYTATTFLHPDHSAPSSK
# UniProt Q8NEC5, sequence (whole entry, looked up): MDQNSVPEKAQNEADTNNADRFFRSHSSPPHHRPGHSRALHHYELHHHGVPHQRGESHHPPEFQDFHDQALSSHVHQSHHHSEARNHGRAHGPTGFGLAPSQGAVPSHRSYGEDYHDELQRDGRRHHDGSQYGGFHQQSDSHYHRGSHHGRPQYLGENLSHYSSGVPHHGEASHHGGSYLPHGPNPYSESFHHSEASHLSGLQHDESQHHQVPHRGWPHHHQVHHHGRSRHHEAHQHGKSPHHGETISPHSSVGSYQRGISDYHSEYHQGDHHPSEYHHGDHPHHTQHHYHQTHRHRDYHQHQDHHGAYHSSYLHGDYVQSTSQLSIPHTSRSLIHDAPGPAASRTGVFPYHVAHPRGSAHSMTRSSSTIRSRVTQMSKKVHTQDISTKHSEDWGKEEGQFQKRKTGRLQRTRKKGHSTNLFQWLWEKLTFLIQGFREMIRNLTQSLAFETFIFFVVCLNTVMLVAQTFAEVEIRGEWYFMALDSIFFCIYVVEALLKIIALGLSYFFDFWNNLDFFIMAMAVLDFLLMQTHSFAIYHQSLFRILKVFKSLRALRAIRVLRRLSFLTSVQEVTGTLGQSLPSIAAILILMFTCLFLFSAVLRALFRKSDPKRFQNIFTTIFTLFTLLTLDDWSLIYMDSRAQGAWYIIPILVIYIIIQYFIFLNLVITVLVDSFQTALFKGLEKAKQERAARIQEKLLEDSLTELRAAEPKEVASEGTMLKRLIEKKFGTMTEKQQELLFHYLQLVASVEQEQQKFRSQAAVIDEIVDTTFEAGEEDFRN
SMILES,target,assay,system,setting,IC50
N=C(N)c1ccc(C(=O)N[C@@H](Cc2ccc(O)cc2)C(=O)N2CCC(OCC(=O)O)CC2)cc1,"TMPRSS2 (Homo sapiens, UniProt O15393)","enzyme activity, inhibitor, fluorescence",,,1.39 µM
OCC[S+](CCO)C[C@@H](O)[C@@H](O)CO,"Si (Rattus norvegicus, UniProt P23739)","enzyme activity, inhibitor",,pH 6,> 296 µM
Cc1cccc2c1NC(=O)C2=Cc1ccc(-c2cccc(C(=O)N3CCCN(C)CC3)c2)o1 (mixture of isomers),"PIM3 (Homo sapiens, UniProt Q86V86)","enzyme activity, inhibitor",,,0.00988 µM
COc1cccc(/C=C/C(=O)c2ccc(C)o2)c1OC,PTGS2,"enzyme activity, inhibitor, ELISA",,,56.2 µM
CCCCCCCCCCCC1N=C(N)N=C(N)N1c1ccc(Cl)cc1 (racemic),"folA (Escherichia coli, UniProt P0ABQ4)","enzyme activity, inhibitor",,,2.1 µM
O=C(CCCCCCC(=O)Nc1ccccc1N=Nc1ccccc1)NO,"HDAC3 (Homo sapiens, UniProt O15379)","enzyme activity, inhibitor, fluorescence",,,0.0077 µM
CC(C)CCN(Cc1ccncc1)c1nc(C#N)nc(N2CCOCC2)n1,CPL,"enzyme activity, inhibitor, Z-L-R-AMC hydrolysis fluorescence",,,0.107 µM
CC(C)C[C@@H]1NC(=O)[C@@H](CCCNC(=N)N)NC(=O)[C@H](CCCCN)NC(=O)[C@H](CC(=O)O)NC(=O)[C@H](CCCCN)NC(=O)[C@H](CO)NC1=O,"Disintegrin and metalloproteinase domain-containing protein 8 (Homo sapiens, UniProt P78325)","enzyme activity, inhibitor, fluorescence",,,1.98 µM
C[C@@H]1CCN(c2nc3ccc(Cl)cc3o2)CCN1S(=O)(=O)c1cccc(F)c1,"HCRTR2 (Homo sapiens, UniProt O43614)","calcium signal, antagonist, fluorescence",,,1.65 µM
COc1ccccc1C(c1c[nH]c2ccccc12)C(C#N)C#N (stereo not drawn),"Cocaine esterase (CES2, Homo sapiens, UniProt O00748)","enzyme activity, inhibitor",human liver microsomes,"pH 7.4, 37 °C, added: fluorescein diacetate",7.79 ± 1.24 µM
CC[C@@H]1C(=O)N(C)c2cnc(Nc3ccc(C(=O)NCCCC[C@H](NC(=O)[C@@H](NC(=O)[C@H](CO)NC(=O)[C@H](Cc4cncn4CCCCCCCCc4ccccc4)NC(=O)[C@H](CC(C)C)NC(=O)[C@@H]4CCCN4C(C)=O)[C@@H](C)OP(=O)(O)O)C(N)=O)cc3OC)nc2N1C1CCCC1,"ALK (Homo sapiens, UniProt Q9UM73)","enzyme activity, inhibitor",,,> 10 µM
N[C@@H](Cc1c[nH]cn1)C(=O)NCC(=O)N[C@@H](CC(=O)O)C(=O)N[C@@H](Cc1ccccc1)C(=O)O,"Integrin alpha-IIb/beta-3, ADP-activated (Homo sapiens, UniProt P05106+P08514)","fibrinogen binding, inhibitor",human platelets,,> 1000 µM
COc1cccc(/C=C/C(=O)c2cccc3ccccc23)c1OC,PTGS1,"enzyme activity, inhibitor, ELISA",,,< 25 µM and 21.1 µM
O=C(N[C@@H](Cc1ccccc1)C(=O)N[C@@H](C[C@H]1CCNC1=O)C(=O)C(=O)NC1CC1)OCc1ccccc1,"Genome polyprotein, 3C protease (Human enterovirus D68, UniProt Q68T42)","3C protease activity, inhibitor, FRET",,,0.093 ± 0.01 µM
CC(C)C[C@@H]1NC(=O)[C@H](CCCCN)NC(=O)[C@H](CC(C)C)NC(=O)[C@@](C)(NC(=O)[C@H](Cc2ccccc2)NC(=O)[C@H](Cc2ccc(O)cc2)NC(=O)[C@H](C)NC(=O)[C@@H](N)[C@@H](C)O)CCCCC=CCCCC[C@@](C)(C(=O)NCC(=O)N[C@@H](CCCNC(=N)N)C(=O)N[C@@H](Cc2c[nH]c3ccccc23)C(N)=O)NC1=O,gag-pol integrase,"integrase strand transfer, inhibitor",,,44 ± 4 µM
C/C=C1/CN2CCc3c([nH]c4ccccc34)[C@@H]2C[C@@H]1/C(=C\OC)C(=O)OC,"HTR1A (Homo sapiens, UniProt P08908)","ligand displacement, radioligand",,cell membranes,0.904 µM
O=C(O)c1ccccc1Nc1ccc(Oc2ccc([N+](=O)[O-])cc2)cc1,"Androgen receptor (AR, Homo sapiens, UniProt P10275)","reporter gene, antagonist, MMTV-Luc reporter",MDA-kb2,"20 h, added: 8 nM DHT (EC90)",38.6 ± 4.7 µM
CC(C)=CCCC1(C)C=Cc2c(ccc3cc(-c4cc(O)cc(O)c4CC=C(C)C)oc23)O1 (stereo not drawn),"GSK3B (Homo sapiens, UniProt P49841)","enzyme activity, inhibitor",,,6.36 µM
N#CC1=C(N)n2c(nnc2-c2ccccc2)NC1c1ccc(Cl)cc1 (stereo not drawn),PTGS2,"enzyme activity, inhibitor",,,34.5 µM
N#Cc1cc(C(=O)c2ccc3ccccc3c2O)c[nH]c1=O,PTGS1,"enzyme activity, inhibitor, ELISA",,,429 µM
OC1(c2ccc(Cl)cc2)CCN(Cc2ccccc2F)CC1,"CatSper channel complex (Homo sapiens, UniProt Q7RTX7+Q86XQ3+Q8NEC5+Q96P56)","calcium influx, inhibitor, FLIPR",human sperm,added: 3 µM progesterone,18 ± 2 µM
CC[C@H](C)[C@@H]1NC(=O)[C@H](C(C)C)NC(=O)[C@H](C(C)C)NC(=O)[C@H](CC(C)C)NC(=O)C[C@@H](C(=O)N[C@@H](Cc2c[nH]c3ccccc23)C(=O)N[C@@H](CC(N)=O)C(=O)N[C@@H](C)C(=O)N2CCC[C@H]2C(=O)NCC(=O)N[C@@H](Cc2c[nH]c3ccccc23)C(=O)N[C@@H](Cc2ccccc2)C(=O)O)NC(=O)[C@H](C)NC(=O)[C@H](CCC(N)=O)NC(=O)[C@H](C(C)C)NC1=O,"TLR4 (Homo sapiens, UniProt O00206)","LPS binding, antagonist, ELISA",,,0.753 ± 0.015 µM
CN[C@@H]1[C@H](O)[C@H](NC)[C@H]2O[C@]3(O)[C@H](O[C@@H]2[C@H]1O)O[C@H](C)C[C@@]3(O)CNCc1ccc(OC(F)(F)F)cc1,"Small ribosomal subunit protein uS5, 70S ribosome (rpsE, Mycolicibacterium smegmatis, UniProt A0QSG6)","translation, inhibitor, in vitro translation, luciferase",Mycobacterium smegmatis ribosomes,,1.15 µg/mL
N#Cc1nc(N2CCOCC2)nc(N(Cc2ccc(F)cc2)CC2CCCCC2)n1,CPL,"enzyme activity, inhibitor, Z-L-R-AMC hydrolysis fluorescence",,,0.026 µM
COC(=O)C1CN1S(=O)(=O)c1cccc2ccccc12 (stereo not drawn),"P4HB (Homo sapiens, UniProt P07237)","enzyme activity, inhibitor, absorbance",,pH 7.6,1.2 µM
CC(C)C[C@@H]1NC(=O)[C@H](CCCCN)NC(=O)[C@H](CC(C)C)NC(=O)[C@@](C)(NC(=O)[C@H](Cc2ccccc2)NC(=O)[C@H](Cc2ccc(O)cc2)NC(=O)[C@H](C)NC(=O)[C@@H](NC(=O)c2ccc3c(c2)C(=O)OC32c3ccc(O)cc3Oc3cc(O)ccc32)[C@@H](C)O)CCCC=CCCC[C@@](C)(C(=O)NCC(=O)N[C@@H](CCCNC(=N)N)C(=O)N[C@@H](Cc2c[nH]c3ccccc23)C(N)=O)NC1=O,gag-pol integrase,"integrase strand transfer, inhibitor",,,6 ± 1 µM
CC(C)[C@@H]1NC(=O)[C@]2(C)CSC(=N2)c2cccc(n2)CNC(=O)C[C@@H](/C=C/CCS)OC1=O,HDAC6,inhibitor,,,0.654 µM
CC[C@H](C)[C@H](NC(=O)[C@H](Cc1ccccc1)NC(=O)[C@H](CCCN)NC(=O)[C@H](CCCNC(=N)N)NC(=O)[C@H](Cc1ccccc1)NC(=O)[C@H](Cc1ccccc1)NC(=O)[C@H](CCCN)NC(=O)[C@H](CO)NC(=O)[C@H](CC(C)C)NC(=O)[C@H](CCCNC(=N)N)NC(=O)[C@H](CCSC)NC(=O)[C@H](C)N)C(=O)N[C@@H](CC(C)C)C(=O)N[C@@H](CCC(N)=O)C(=O)N[C@@H](CCCNC(=N)N)C(=O)N[C@@H](CCCCN)C(=O)N[C@@H](CCCCN)C(=O)O,"histidine kinase ComD (Streptococcus pneumoniae serotype 4, UniProt A0A0H2US84)",,"Streptococcus pneumoniae cells, Streptococcus pneumoniae",,> 1 µM
CSCC[C@H](NC(=O)[C@H](Cc1ccccc1)NC(=O)[C@H](Cc1c[nH]cn1)NC(=O)CNC(=O)[C@@H](NC(=O)[C@H](C)NC(=O)[C@H](Cc1c[nH]c2ccccc12)NC(=O)[C@H](CCC(N)=O)NC(=O)[C@@H]1CCCN1C(=O)CNC(=O)CNC(=O)CNC(=O)[C@@H]1CCC(=O)N1)C(C)C)C(N)=O,"BRS3 (Homo sapiens, UniProt P32247)","human GRPR activity, cell-based",,,> 3 µM
CC(C)CCN(Cc1cccnc1)c1nc(C#N)nc(N2CCOCC2)n1,CPL,"enzyme activity, inhibitor, Z-L-R-AMC hydrolysis fluorescence",,,0.039 µM
CC(C)[C@@H](NC(=O)[C@@H](C)c1cccc(C(=O)c2ccccc2)c1)C(=O)N[C@H](CCC(=O)O)C(=O)N[C@@H](C(=O)N[C@H](CCC(=O)O)C(=O)O)C(C)C,PTGS2,"enzyme activity, inhibitor, fluorescence",,,5.8 µM
O=C1c2ccccc2[Se](=O)N1c1ccccc1 (stereo not drawn),"HDAC9 (Homo sapiens, UniProt Q9UKV0)","enzyme activity, inhibitor, fluorescence",,,2.37 µM
O=[N+]([O-])c1cccc(-c2cc(C3CC4CCC3N4)cnc2F)c1 (racemic),"Neuronal acetylcholine receptor; alpha4/beta2 (Rattus norvegicus, UniProt P09483+P12390)","ion current, antagonist, two-electrode voltage clamp",,oocytes,4.3 µM
CCCCCCCCCCCC1=C(O)C(=O)C=C(NCCN2CCOCC2)C1=O,PTGS1,"enzyme activity, inhibitor, ELISA",,,3.18 µM
COC(=O)C=CCCC(NC(=O)c1ccncc1C(=O)O)C(=O)NC(C(=O)N1CC(=O)CC1C(=O)NC(C(=O)NC(C(N)=O)C1CCCCC1)C1CCCCC1)C(C)(C)C (stereo not drawn),"Coagulation factor XIII A chain, with factor XIII B (F13A1, Homo sapiens, UniProt P00488)","transamidase activity, inhibitor",,"added: dansylcadaverine, N,N-dimethylcasein",0.004 ± 0.0004 µM
COc1ccc(N=Nc2cccc(NC(=O)CCCCCCC(=O)NO)c2)cc1,"HDAC8 (Homo sapiens, UniProt Q9BY41)","enzyme activity, inhibitor",,trans isomer,0.843 ± 0.204 µM
N=C(N)NCCC[C@H](NC(=O)[C@H](CCCNC(=N)N)NC(=O)[C@H](CCCNC(=N)N)NC(=O)[C@H](CCCNC(=N)N)NC(=O)[C@H](CCCNC(=N)N)NC(=O)[C@H](CCCNC(=N)N)NC(=O)CCCCCNC(=O)[C@H]1O[C@@H](n2cnc3c(N)ncnc32)[C@H](O)[C@@H]1O)C(N)=O,"cGMP-dependent protein kinase 1, isoform alpha (PRKG1, Homo sapiens, UniProt Q13976)",,,,2.57 µM
O=C(CCCCCCC(=O)Nc1cccc(N=Nc2ccccc2)c1)NO,HDAC6,"enzyme activity, inhibitor",,"cis isomer, irradiated",0.047 ± 0.013 µM
CC(=O)N[C@@H](Cc1ccccc1)C(=O)N[C@@H](CC(C)C)C(=O)N[C@H](C(=O)N[C@@H](CC(=O)O)C(=O)CCl)[C@@H](C)O,"Caspase-5 (CASP5, Homo sapiens, UniProt P51878)","enzyme activity, inhibitor, fluorescence",,,15.6 µM and 15 µM
